Measured values gathered from unrelated publications.
Parts stem from different laboratories: compare values within a part only.

Study 1 — method: universal PBM; form: double-stranded DNA, one strand shown; matrix: in vitro; tested at: not given; direction: higher = stronger binding
Target: Sal-like protein 4, full length isoform B (SALL4, Homo sapiens, UniProt Q9UJQ4-2, residues 1-616)
Setting: 8-mer, flanks averaged, mean of replicates
Residues (chain): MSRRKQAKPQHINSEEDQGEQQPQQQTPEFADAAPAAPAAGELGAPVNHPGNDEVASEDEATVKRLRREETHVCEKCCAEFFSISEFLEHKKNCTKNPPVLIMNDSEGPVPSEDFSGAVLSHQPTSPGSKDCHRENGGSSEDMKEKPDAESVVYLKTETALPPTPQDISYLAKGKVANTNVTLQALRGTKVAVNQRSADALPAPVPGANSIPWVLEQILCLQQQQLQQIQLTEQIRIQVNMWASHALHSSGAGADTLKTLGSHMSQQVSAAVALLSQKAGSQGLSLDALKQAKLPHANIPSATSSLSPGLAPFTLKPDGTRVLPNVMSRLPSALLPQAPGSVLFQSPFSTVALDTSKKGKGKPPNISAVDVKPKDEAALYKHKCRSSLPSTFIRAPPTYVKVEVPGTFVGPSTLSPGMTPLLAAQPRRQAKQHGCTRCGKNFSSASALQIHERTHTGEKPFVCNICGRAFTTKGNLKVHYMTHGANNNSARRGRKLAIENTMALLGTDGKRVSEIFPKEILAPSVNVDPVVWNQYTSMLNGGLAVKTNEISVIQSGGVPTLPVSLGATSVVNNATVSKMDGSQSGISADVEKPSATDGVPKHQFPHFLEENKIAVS
`AACAAATA` gave an E-score of 0.309.
`CGGCACCA` gave an E-score of -0.278.
`ACTAGCAG` has an E-score of -0.0768.
`ACTAAGTC` gave an E-score of 0.041.
For `GAAGCATC`, the E-score was -0.0879.
For `ATTGGGGC`, the E-score was -0.0842.
With `CACCCAAA` the E-score was -0.0798.
The E-score of `ACGTGAAT` is reported as 0.0311.
The E-score of `GCAACTCA` is reported as -0.0926.
`AGTGAGAT` has an E-score of 0.0123.
`CGTCCTTA` gave an E-score of -0.0154.
`GAATAGCC` has an E-score of -0.207.
For `AAATTTCT`, the E-score was 0.234.
`ACTACCAC` has an E-score of 0.0583.
`CAGGGACC` gave an E-score of -0.293.
`CCAAAGGC` gave an E-score of -0.212.
The E-score of `ATTAATCA` is reported as 0.331.
With `ATGACATA` the E-score was 0.3.
The E-score of `ATCACACG` is reported as 0.127.

Study 2 — method: protein binding microarray; form: double-stranded DNA, one strand shown; matrix: in vitro; tested at: not given; reference: not given; direction: higher = stronger binding
Target: Histone acetyltransferase KAT6A, both winged helices, GST fusion (KAT6A, Homo sapiens, UniProt Q92794, residues 1-181)
Setting: 8-mer, flanks averaged, mean of 2 arrays, mostly near background
Residues (chain): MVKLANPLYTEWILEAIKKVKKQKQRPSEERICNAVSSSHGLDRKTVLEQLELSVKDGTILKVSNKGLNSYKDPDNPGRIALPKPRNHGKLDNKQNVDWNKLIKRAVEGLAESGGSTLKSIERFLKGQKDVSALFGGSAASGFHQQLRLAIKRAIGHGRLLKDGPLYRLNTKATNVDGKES
`AGACTCGC` has an E-score of 0.0631.
`CCGTGAGC` has an E-score of 0.278.
With `CAGGTAAC` the E-score was -0.193.
`GCCTGTTA` gave an E-score of -0.214.
`ATCAACAA` gave an E-score of -0.091.
The E-score of `ACAAGCAA` is reported as -0.114.
The E-score of `GGCTTATA` is reported as -0.102.
`ATGGGCGA` has an E-score of -0.0562.
The E-score of `TCGAATAA` is reported as -0.0962.
For `AGTGGAAC`, the E-score was -0.0419.
`AGGGCGCG` has an E-score of 0.225.
The E-score of `CAAGCCGC` is reported as 0.224.
The E-score of `GATATGAA` is reported as 0.0035.
`GTGCAGGA` has an E-score of -0.143.
For `CCCATCCC`, the E-score was -0.0741.
With `GGACATAC` the E-score was 0.0556.

Study 3 — method: RNA Bind-n-Seq; form: RNA; matrix: in vitro; tested at: 365 nM; reference: no-protein control; direction: higher = stronger binding
Target: RNA binding protein fox-1 homolog 2, RRM domain, GST-SBP tag (RBFOX2, Homo sapiens, UniProt O43251-10, residues 100-194)
Setting: natural RNA segment, single round, ends assumed
Constant ends, left off below: GGGAGUUCUACAGUCCGACGAUC … UGGAAUUCUCGGGUGCCAA
Residues (chain): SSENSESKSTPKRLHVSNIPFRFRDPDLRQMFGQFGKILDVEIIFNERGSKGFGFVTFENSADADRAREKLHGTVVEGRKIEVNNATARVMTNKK
For `AGCCCUACAAUCUGACUCCUUCUAGGGACUCUGGGGCUAGCUUUGUGGGAGAGUCAGCCCUGCCCCUCCUCUCCCAUGUGACCCUGUCAUAGUUUGCAGUGUCCUAGGUA`, “RBNS enrichment (R)” read 0.391.
`CCAAAUGUCACUUCUGCAUAAAGCAUGUAUGUCAUCUAUUUUUUCUUCAAUAAAGAGAUUUAAUAGCCAUUUCAAGAAAUCCCAUAAAGAACCUCUCUAUGUCCCUUUUU`: “RBNS enrichment (R)” 3.93.
For `ACUCUUGUUCCUAACGACAACGUGGCUAUGUGCAAUGGAGACAAACUGGACUGUGAGUCUCUUGGUUCAGUAUUAGGUUCACUUUAUUUAUACUGUAAGUUAUUUUACUU`, “RBNS enrichment (R)” read 0.698.
For `GGAGUGGAAGUGGCCAGACCAUUUAGACGGACAGGGUCCUCACCCUACCCCUUUCCUGUGAGGCAGGGGUGGUGGUGGAGUUGCUGGAGGUAGAGGAGCUAUGUGGAGCA`, “RBNS enrichment (R)” read 1.25.
Under “RBNS enrichment (R)”, `UAAACCCAGUGUCAGGUCUAGGAAAUUAAUGGCUAUUCUUCCCCAGAUACAUUCUGGCUUAUUUGAGAUACAUGAUUCUCUUAGAAUCCUGUCCCUUGGUUCAGGAAAGU` is recorded as 0.278.
`GUUCUGUAUAAUUGAUAGUACAAGUGUGGACCCUUAUAUUUCUAACAGUUCAUUGCUUUGGAAUGGCCGUGAAAGAGAUCUAACUGUGGAUGCUUACUGAGGCUUGUAUG`: “RBNS enrichment (R)” 0.952.
`AAUUCUGAAUUUGCAAAGUACUGUAAGAAUAAUUUAUAGUAAUGAGUUUAAAAAUCAACUUUUUAUUCCUUCUCACCAGCUGCAAAGUGUUUUGUACCAGUGAAUUUUUG`: “RBNS enrichment (R)” 0.57.
Under “RBNS enrichment (R)”, `GUAUGUUUUGCAAAAAUCAGUCCACUUAGCAAACUAAUCUUUGUAAAGCAGUCAGUUUCAGAAGAUACUUUUUAUCAAAAAAGAUGGCAGGUUUAACAUUAUACCUUUUG` is recorded as 0.309.
`CACCAAGGCAGUAGCUAUGAUUCUAGAAGCUAAGAGGUGUCUAUAGAGCUAGACGGGCUUCUGCAUGUGAAAUGCUGUAUUCCAUAGGAGUUAAAAGUGCUGACUGAGCA` — result for “RBNS enrichment (R)”: 10.1.
`CCUUAAACAGCUAGCAUGAAACAGUUUUGUCGUGGCCACCAGGCUUCUGUGGGAACAGUCCUUCUCUGGCUGGCUAGCUAGGCACAGCUACGGCACUGGAAAGAGUAGAG`: “RBNS enrichment (R)” 4.85.
For `GUCCUAGUGAACCUCACCCCGAGGCCCUGCAUGGGCCAGCCCCUCCAUCUGUACUUGGUCCAACUGCAACUCAUCAUCGGUGACUGGUUAUCACACCAUCGCUGGCCCCU`, “RBNS enrichment (R)” read 0.769.
`CCCCAGGUUUGAAACACAUAGCCUCAUUUCAAGGUGUAGCCAGGUUCCCCCGACUUUCCUCUGGGAUAUAAAAAAGGGGGUAAGGGGGCAAAGAGAGCCCUCUGGGCCUC`: “RBNS enrichment (R)” 0.386.

Study 4 — method: RNA Bind-n-Seq; form: RNA; matrix: in vitro; tested at: not given; reference: input RNA pool; direction: higher = stronger binding
Target: RING finger protein unkempt homolog, zinc fingers 1-6, GST-SBP tag (UNK, Homo sapiens, UniProt Q9C0B0, residues 30-357)
UniProt Q9C0B0, sequence (30-357, looked up): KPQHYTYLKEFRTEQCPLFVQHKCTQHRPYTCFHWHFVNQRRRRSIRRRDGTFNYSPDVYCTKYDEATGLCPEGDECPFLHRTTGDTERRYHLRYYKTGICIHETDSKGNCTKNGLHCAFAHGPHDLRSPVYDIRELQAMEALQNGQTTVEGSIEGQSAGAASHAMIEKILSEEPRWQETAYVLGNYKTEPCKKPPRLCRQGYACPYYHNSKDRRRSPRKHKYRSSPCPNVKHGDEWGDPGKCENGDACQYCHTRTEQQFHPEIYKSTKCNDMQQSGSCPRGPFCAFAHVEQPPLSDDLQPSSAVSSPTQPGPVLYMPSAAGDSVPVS
Setting: RNA with constant flanks, human and mouse sites, ends assumed
Constant ends, left off below: GGGAGUUCUACAGUCCGACGAUC … CAACAGAGGAUUGAGCAUCA
For `GGACAGAGGCAUUCUACUGGAGAUACCAAAGUUCCCUUCUGUCUUCAGUCCUGUGUAAAACCUUUGAAAUAUGCCAUUGCUGUUAAUGAUCUUGGAACUGAAUAUGUGCAUCGAUAUGUU`, the bound/input enrichment was 0.138 ratio.
For `CUGCUCAGGCUGAGAGCUCAGACAAAACAGCAGCUCUUAGAAUAUAAGUCCAUGAUCGACACAAAUGAAGAAAAAACUCCAGAACAGAUUAUGCAAGAAAAACAGAUCGAAGUUAAAAUU`, the bound/input enrichment was 0.946 ratio.
For `AAUUUUUUUGGUAUUUUUUUAAACGUUCGUGGAUGAAUGCCAACUUUCAGACGGAGCCCACUUAGCUUGUCCACAUGUAUCUCAAUGCCAACCCUCCAUUUUUCCUCUCCAGAUAUUUUU`, the bound/input enrichment was 2 ratio.
The bound/input enrichment of `AAACAGCCUGAGAAAGUGGCAGCUACCAGGCAGGAGAUCUUCCAGGAGCAGUUGGCAGCAGUGCCAGAGUUCCGCGGUCUUGGGCCCCUCUUCAAGUCCUCGCCUGAGCCCGUGGCCCUC` is reported as 0.116 ratio.
For `GCCACAUUUGCUAUUUCCAUCCUGCAACAGUUGGAGAUUGAGUUCAAGGAGACCCAAGCACUAGUAUUGGCCCCCACCAGAGAACUGGCUCAACAGAUCCAAAAGGUAAUUCUGGCACUU`, the bound/input enrichment was 0.163 ratio.
For `ACCUCCACCUCCAAGUUCUUAAUGAAUGUUAUAACUAUUGAAGAUUAUAAGAGCACAUACUGGCCAAAAUUGGAUGGUGCCAUAGAUCAACUUUUAACUCAGAGUCCUGGUGACUAUAUC`, the bound/input enrichment was 0.997 ratio.
With `CUCAUCUUUGACCUGGGAGGUGGCACUUUUGAUGUGUCAAUCCUCACUAUUGAGGAUGGAAUCUUUGAGGUCAAGUCUACAGCUGGAGACACCCACUUGGGUGGAGAAGAUUUUGACAAC` the bound/input enrichment was 0.188 ratio.
The bound/input enrichment of `UGGACUCAUGUUGGGCCUACUCCUGCAAUAACAAUUAAGGAAUCAGUUGCCAACCAUUUGUAGUUCACAAAUUAAAACUGGGUUUCCAGGCCUGGUGUGGUGGCUCACGCCUGUAGCCCC` is reported as 1.79 ratio.
With `AAUGCUGUUCGCCAAAAUGGACAGCUGGUCAGAAAUGAUUCUCUGUAUGGCAUUUCAAAUAUAGAUACAACCAUUGAAGGAACGUCAGAUGACCUGACUGUUGUAGAUGCAGCUUCACUA` the bound/input enrichment was 0.276 ratio.
`GAUAUUCAUUUGAAUGAAAUGGCUGGAGACAUCUUAGUUUUUCUGACUGGCCAGUUUGAGAUAGAGAAGAGUUGCGAGCUGCUCUUUCAGAUGGCGGAGUCUGUUGACUAUGAUUAUGAU` gave a bound/input enrichment of 0.38 ratio.
`AACGUAUUUGUAAAAUUAACACUAAAGAUGCAUGUGAGUCAUUUCACCAAAAGGAACUCUAUUAAUAAGCUAGACUGCUUUUGGUUUCCAGUAAUUGGUUUAAAAACACAGUAAAUUUAC` gave a bound/input enrichment of 0.287 ratio.

Repeated from above (study 2):
The E-score of `CAAGCCGC` is reported as 0.224.
The E-score of `GATATGAA` is reported as 0.0035.
`GTGCAGGA` has an E-score of -0.143.
For `CCCATCCC`, the E-score was -0.0741.
